Results gathered from unrelated publications.
Protocols differ between the studies behind these lines. ± marks the error that the study gave.

NC(=O)[C@@H]1CC(F)(F)CN1C(=O)c1ccc(N2CC(F)(F)C2)c(OCC2CC2)n1
solubility (LYSA): 4 ± 0.1 µg/mL

Cn1nccc1[C@]1(CNC(=O)c2ccc(F)c(F)c2-c2ccc(C(F)(F)F)cc2)NC(=O)NC1=O
solubility (water, ethanol, Solutol HS 15; 24 h, crystalline material): 30000 µg/mL

CC[C@@H](C)[C@H]1NC(=O)[C@@H]2CCCN2C(=O)[C@H](CO)NC(=O)[C@H](CC(C)C)NC(=O)[C@H](C(C)C)NC(=O)CN(C)C(=O)[C@@H](Cc2ccc(O)cc2)NC(=O)[C@@H](Cc2ccc(O)cc2)NC(=O)CSC[C@@H](C(=O)O)NC(=O)[C@@H](CC(C)C)NC1=O
solubility (HBSS; pH 7.4): 813 µM

CC(C)(C)C(=O)NNCc1ccccc1
solubility (PBS; 2 h, pH 7.4, 25 °C): ≥ 400 µM

COc1cc(Nc2ncc(F)c(Nc3ccc4c(n3)NC(=O)C(C)(C)O4)n2)cc(OC)c1OC
solubility (non-kinase assay buffer; 24 h, pH 7.5, 0.1% DMSO): 2.6 µM

CC[C@H](C)[C@H](NC(=O)[C@H](C)NC(=O)[C@H](CCC(=O)O)NC(=O)[C@H](CCC(=O)O)NC(=O)[C@H](CC(C)C)NC(=O)[C@H](CCCCN)NC(=O)[C@H](CCCCN)NC(=O)[C@H](CCSC)NC(=O)[C@H](CCC(=O)O)NC(=O)[C@H](Cc1ccc(O)cc1)NC(=O)[C@H](CCC(=O)O)NC(=O)[C@H](CC(C)C)NC(=O)[C@H](CC(=O)O)NC(=O)[C@H](CC(C)C)NC(=O)[C@H](Cc1ccccc1)NC(=O)[C@@H](NC(=O)[C@@H](NC(=O)[C@H](CC(N)=O)NC(=O)[C@@H](NC(=O)[C@H](CCC(N)=O)NC(=O)[C@H](CC(=O)O)NC(=O)[C@H](CC(C)C)NC(=O)[C@@H](N)CO)[C@@H](C)CC)C(C)C)[C@@H](C)O)C(=O)N[C@@H](CCCCN)C(=O)N[C@@H](CCCCN)C(=O)N[C@@H](CC(C)C)C(=O)N[C@@H](CCC(=O)O)C(=O)N[C@@H](CCC(=O)O)C(=O)N[C@@H](CO)C(=O)N[C@@H](Cc1ccc(O)cc1)C(=O)N[C@H](C(=O)N[C@@H](CC(=O)O)C(=O)N[C@@H](CC(C)C)C(=O)N[C@@H](CCCCN)C(=O)N[C@@H](CCC(=O)O)C(=O)N[C@@H](CC(C)C)C(=O)O)[C@@H](C)CC
solubility (PBS; pH 7.2): 1540 ± 115 µM

O=C(NCCCNc1nc(Nc2cccc(NC(=O)N3CCCC3)c2)ncc1I)c1cccs1
solubility (aqueous buffer; 24 h, pH 7.4, 37 °C): < 1 µg/mL

CC[C@@H]1NC(=O)[C@H]([C@@H](C)CC)NC(=O)[C@H](CC(C)C)NC(=O)[C@@H]2CCCN2C(=O)[C@@H](CC(C)C)NC(=O)[C@H]2CCCN2C(=O)[C@@H](Cc2ccc(O)cc2)NC(=O)CSC[C@@H](C(=O)O)NC(=O)[C@H]([C@@H](C)O)NC(=O)[C@H]([C@@H](C)CC)NC(=O)[C@H](C)NC1=O
solubility (HBSS; pH 7.4): 776 µM

CCOC(=O)N1C[C@@H](c2cccnc2)N[C@@H](C(CC)CC)C1
solubility (shake-flask, LC-HRMS; aqueous buffer; 16 h, pH 6.8): > 750 µM

CCc1ccc(OCCc2cccc(F)c2)c(C(N)=O)c1
solubility (PBS; 30 (unit not given), pH 7.4): 50 µM

COc1ccc(-c2oc3cc(OC)cc(OC)c3c(=O)c2OC)cc1
solubility (HPLC; ethanol:butylene glycol 25:75): 6033 ± 13 ppm

CN1C(=O)Cc2ccc(F)c(CCNCC[C@H]3CN(c4ccc5c(n4)NC(=O)CO5)C(=O)O3)c21
solubility (aqueous buffer): 178 µM

CC(C)N(Cc1ccccc1)C(=O)C(C)(C)C
solubility (PBS; pH 7.4, 25 °C, 2% DMSO): 323 µM

CNC(=O)c1cc(C)ccc1OCCc1ccc(Br)cc1
solubility (PBS; 30 (unit not given), pH 7.4): 25 µM

CS(=O)(=O)NCC1CCOC2(CCN(C(=O)C3(c4ccc(Cl)cc4)CCCC3)CC2)C1 (centres unmarked)
solubility (pH 7.4): 220 µM

COc1cc2c(cc1NC(=O)c1ccc(C(C)(C)C)cc1)CCCCN2
solubility (pH 7.4): 6 µM

COc1ccc(C2(C(=O)N3CCC4(CC3)CC(CNS(C)(=O)=O)CCO4)CCCC2)cc1 (centres unmarked)
solubility (pH 7.4): 210 µM

COC1=CC(c2ccc[nH]2)=N/C1=C\c1[nH]c(C)cc1Cc1ccccc1.Cl
solubility (potassium phosphate buffer; 1.5 h, pH 7.4, room temperature, 100 mM buffer): 196 µM

Cc1ccc([C@H]2N[C@@H](CC(C)(C)C)CO[C@@H]2C)cn1
solubility (shake-flask, LC-HRMS; aqueous buffer; 16 h, pH 6.8): > 750 µM

COC1=CC(c2ccc[nH]2)=N/C1=C\c1[nH]c(Cc2ccccc2)cc1Cc1ccccc1.Cl
solubility (potassium phosphate buffer; 1.5 h, pH 7.4, room temperature, 100 mM buffer): < 3.13 µM

CC[C@H](C)[C@H](NC(=O)[C@H](CCC(=O)O)NC(=O)[C@H](CCCCN)NC(=O)[C@H](CC(C)C)NC(=O)[C@H](CC(N)=O)NC(=O)[C@@H](NC(=O)[C@H](Cc1ccc(O)cc1)NC(=O)[C@H](CO)NC(=O)[C@H](CCC(=O)O)NC(=O)[C@H](CCC(=O)O)NC(=O)[C@H](CC(C)C)NC(=O)[C@H](CCCCN)NC(=O)[C@H](CCCCN)NC(=O)[C@@H](NC(=O)[C@H](C)NC(=O)[C@H](CCC(=O)O)NC(=O)[C@H](CCC(=O)O)NC(=O)[C@H](CC(C)C)NC(=O)[C@H](CCCCN)NC(=O)[C@H](CCCCN)NC(=O)[C@H](CCSC)NC(=O)[C@H](CCC(=O)O)NC(=O)[C@H](CC(=O)O)NC(=O)[C@H](CCC(=O)O)NC(=O)[C@H](CC(C)C)NC(=O)[C@H](CC(=O)O)NC(=O)[C@H](CC(C)C)NC(=O)[C@H](Cc1ccccc1)NC(=O)[C@@H](NC(=O)[C@@H](NC(=O)[C@H](CC(N)=O)NC(=O)[C@@H](NC(=O)[C@H](Cc1ccc(O)cc1)NC(=O)[C@H](CC(=O)O)NC(=O)[C@H](CC(C)C)NC(=O)[C@@H](N)CO)[C@@H](C)CC)C(C)C)[C@@H](C)O)[C@@H](C)CC)[C@@H](C)CC)C(=O)O
solubility (water): 10700 ± 454 µM

COC1=CC(c2ccc[nH]2)=N/C1=C\c1[nH]c(C)cc1-c1ccc(OC(F)(F)F)cc1.Cl
solubility (potassium phosphate buffer; 1.5 h, pH 7.4, room temperature, 100 mM buffer): < 3.13 µM

C#Cc1ccc2c(c1)C(c1ccccn1)=NCc1c(-c3cnco3)ncn1-2
solubility (chloroform; 24 h, 25 °C, thermodynamic equilibrium): 4360 µg/mL
